Assay results from different studies.
Each line is one published result; not all experiments were run side by side. Several values in a cell are separate wells, animals, samples, runs or records. Numbers after ± are the reported error.

| Compound | test | system | conditions | how to read | quantity | result |
| --- | --- | --- | --- | --- | --- | --- |
| CC(C)n1c(C2CCNCC2)nc2c([N+](=O)[O-])c(Br)c(Br)cc21 | measured: Dysuria | AML patients | 125 mg | – | adverse events causing interruption | 2% |
| CC[C@H](C)CCCCC(=O)N[C@@H](CCN)C(=O)N[C@H](C(=O)N[C@@H](CCN)C(=O)N[C@H]1CCNC(=O)[C@H]([C@@H](C)O)NC(=O)[C@H](CCN)NC(=O)[C@H](CCN)NC(=O)[C@H](CC(C)C)NC(=O)[C@@H](Cc2ccccc2)NC(=O)[C@H](CCN)NC1=O)[C@@H](C)O | – | critically ill patients, 28-day non-survivors, plasma | dose not given, median | – | AUC(0-24 h) at steady state | 68200 ng·h/mL |
| Nc1nc2cc(-c3ccc4ncc(C(=O)N5CCOCC5)n4c3)ccc2o1 | – | advanced solid tumour patients | dose not given | reference: patients | grade ≥3 ALT/AST elevation | 15% |
| COc1ccc(C[C@@H]2NC(=O)[C@H]([C@@H](C)O)NC(=O)[C@@H]3[C@@H]4CCN3C(=O)[C@@H]3Cc5cn(c6ccc(F)cc56)CCCCCCN(Cc5ccc(cc5)CCNC(=O)[C@]5(C)CCCN5C2=O)C(=O)CCC(=O)N[C@@H](C)C(=O)N[C@H](CNC(=O)CCCCC[N+](C)(C)C)C(=O)N[C@@H](Cc2cccc(c2)CNC(=O)CO4)C(=O)N3)cc1 | measured: ligament sprain | human | dose not given | – | participants with adverse event | 2% |
| CC(=O)c1c(C)c2cnc(Nc3ccc(C4CCN(CCS(C)(=O)=O)CC4)cn3)nc2n(C2CCCC2)c1=O | – | human patients, plasma | oral, 100 mg twice daily, day 21 multiple doses | – | AUC(0-inf) | 1800 ng·h/mL |
| CC(C)c1nc(N(C)S(C)(=O)=O)nc(-c2ccc(F)cc2)c1/C=C/[C@@H](O)C[C@@H](O)CC(=O)O | – | healthy human subjects | oral, dose not given, study CL-0537 safety set | – | incidence of blurred vision | 3.6% |
| O=[N+]([O-])NC1=NCCN1Cc1ccc(Cl)nc1 | – | cow whole milk | 200 nM | reference: milk fat over skim milk | milk fat partition ratio | 0.51 |
| CC(C)CC(=O)OC[C@H]1O[C@@](C#N)(c2ccc3c(N)ncnn23)[C@H](O)[C@@H]1O | plasma protein binding | dog plasma | 0.9 µM | – | bound fraction | 0.634 |
| C[C@]1(O)C[C@@](N)(c2ccc(-c3nc4n(c3-c3ccccc3)COc3ccncc3-4)cc2)C1 | – | human, advanced or metastatic solid tumours | 20 mg once daily, phase I dose escalation | – | patients with Fatigue TEAE | 33.3% |
| O=C(Nc1ccccc1)C1CCN(C(=O)Oc2cccnc2)CC1 | – | healthy women | oral, 60 mg, 7 days | – | Vascular disorders adverse events | 14.3% |
| C=CCNc1c(O)cc2c(O)c1C[C@@H](C)C[C@H](OC)[C@H](O)[C@@H](C)/C=C(\C)[C@H](OC(N)=O)[C@@H](OC)/C=C\C=C(/C)C(=O)N2 | measured: first-degree AV block | patients with unresectable or metastatic GIST, STS or other tumours | intravenous, 90 mg/m^2 | – | treatment-emergent adverse events | 17% |
| C[C@@H](O)[C@@H]1NC(=O)[C@H](CCCCN)NC(=O)[C@@H](Cc2c[nH]c3ccccc23)NC(=O)[C@H](Cc2ccccc2)NC(=O)[C@@H](NC(=O)[C@H](N)Cc2ccccc2)CSSC[C@@H](C(=O)N[C@H](CO)[C@@H](C)O)NC1=O | population PK model | human, typical 75 kg | dose not given, weight exponent 1 fixed | – | peripheral volume of distribution | 16.1 L |
| C[C@H]1C[C@@H](N2C(=N)N[C@](C)(c3cccc(NC(=O)c4cccc(C#N)c4)c3Cl)CC2=O)CCO1 | – | rat | 1000 mg/kg, every other day | – | potassium change | -8% |
| CCN1[C@@H](C(=O)NC23CCC(C(=O)O)(CC2)CC3)[C@H](c2cccc(Cl)c2F)[C@]2(C(=O)Nc3cc(Cl)ccc32)C12CCCCC2 | – | patients with advanced solid tumours | oral, 150 mg | – | grade ≥3 Leukopenia incidence | 37.5% |
| CN1CCN(S(=O)(=O)c2cc([N+](=O)[O-])ccc2N(CCOS(C)(=O)=O)CCOS(C)(=O)=O)CC1 | – | NOD/SCID mouse, naive, blood | intraperitoneal, 12.5 mg/kg, week 2 | – | hemoglobin | 138 g/L and 150 g/L and 102 g/L and 154 g/L |
| C[C@@H](NC(=O)N1C(=O)[C@H](Cc2ccnc(N)c2)[C@H]1C(=O)O)C1CCCCC1 | – | healthy adult Chinese volunteers | continuous intravenous infusion, 0.3 mg/kg/h, 5-day infusion, CTCAE 5.0 grading | – | incidence of elevated blood uric acid | 0% |
| Cn1c(-c2ccc(C(N)=O)cc2F)nnc1C(C)(C)Oc1c(F)cc(Cl)cc1F | – | human | oral, dose not given, single ascending dose all doses | – | subjects with drug-related TEAE | 11.1% |
| COC[C@]12CN(C)[C@@H]3[C@@H]4[C@H](OC)[C@H]1[C@@]3([C@@H](OC)C[C@H]2O)[C@@H]1C[C@@]2(O)[C@H](OC(=O)c3ccccc3)[C@@H]1[C@]4(OC(C)=O)[C@@H](O)[C@@H]2OC | – | Sprague-Dawley rat, plasma | oral, dose not given, with NADES in PCW extract | – | Tmax | 50 ± 8.64 min |
| CC1(C)C(=O)N(c2ccc(C#N)c(C(F)(F)F)c2)C(=S)N1c1ccc(C(N)=O)c(F)c1 | population PK final model | human | – | – | intercompartmental clearance | 9.44 L/h |
| C[C@]12C=CC(=O)C=C1C(CSC[C@H](N)C(=O)O)C[C@@H]1[C@@H]2CC[C@]2(C)C(=O)CC[C@@H]12 (stereo partly drawn) | – | human, postmenopausal women, serum | oral, 25 mg daily, 1 year, UGT2B17 and GSTA1 genotypes | – | serum concentration | 28 nM |
| C[C@@H]1NC(=O)[C@H](CCCCNC(=O)CO/N=C/C(=O)NCCCC[C@@H]2NC(=O)[C@@H](Cc3ccccc3)NC(=O)[C@H](CC(=O)O)NC(=O)CNC(=O)[C@H](CCCNC(=N)N)NC2=O)NC(=O)CNC(=O)[C@@H]2CCCN2C(=O)[C@H](CCCCNC(=O)CO/N=C/C(=O)NCCCC[C@@H]2NC(=O)[C@@H](Cc3ccccc3)NC(=O)[C@H](CC(=O)O)NC(=O)CNC(=O)[C@H](CCCNC(=N)N)NC2=O)NC(=O)[C@H](CCCCNC(=O)CN2CCCNCCNCCCNCC2)NC(=O)[C@H](CCCCNC(=O)CO/N=C/C(=O)NCCCC[C@@H]2NC(=O)[C@@H](Cc3ccccc3)NC(=O)[C@H](CC(=O)O)NC(=O)CNC(=O)[C@H](CCCNC(=N)N)NC2=O)NC(=O)CNC(=O)[C@@H]2CCCN2C(=O)[C@H](CCCCNC(=O)CO/N=C/C(=O)NCCCC[C@@H]2NC(=O)[C@@H](Cc3ccccc3)NC(=O)[C@H](CC(=O)O)NC(=O)CNC(=O)[C@H](CCCNC(=N)N)NC2=O)NC1=O [copper-64 labelled] | RP-HPLC | mouse serum | 24 h, 37 °C | – | intact fraction | 98.8% |
| CN1CC[C@@H](c2c(O)cc(O)c3c(=O)cc(-c4ccc(C(F)(F)F)cc4Cl)oc23)[C@@H]1CO | measured: Neutropenia | relapsed B-cell malignancies | oral, 150 mg, grade 3-4, intermittent dosing | – | patients with adverse event | 0% |
| Cn1ncc(-c2nc(N[C@H]3CC[C@H](N)CC3)ncc2Cl)c1CC1CC1 | measured: dyspnea grade 3 or higher | human patients phase I | dose not given | – | adverse event incidence | 13% |
| C[C@]1(CO)Cc2ncn(-c3ccc(C#N)c(Cl)c3)c2C(=O)O1 | – | human | 80 mg multiple doses, fasted | – | subjects with drug-related hyperhidrosis | 0% |
| CC[C@H](C)[C@@H]1NC(=O)[C@@H]2CCCN2C(=O)[C@H](CC(C)C)NC(=O)[C@H](CC(C)C)NC(=O)CNC(=O)[C@@H](NC(=O)[C@@H](NC(=O)[C@H](CC(=O)O)NC(=O)CNC(=O)[C@@H](NC(=O)[C@H](C)NC(=O)CNC(=O)[C@H](CCCCN)NC(=O)[C@H](CC(C)C)NC(=O)[C@H](CC(C)C)NC(=O)[C@H](CCCCN)NC(=O)CNC(=O)[C@@H](NC(=O)[C@@H](N)CC(C)C)C(C)C)C(C)C)C(C)C)CSSC[C@@H](C(=O)O)NC1=O | – | female C57BL/6 mice, plasma | intravenous, 10 mg/kg | – | AUC(0-inf) | 1.23 ± 0.157 ng·h/mL |
| O=S(=O)(Nc1ccccc1)c1ccc(NC(=S)Nc2ccccc2)cc1 | – | mouse, male, small intestine | oral, 80 mg/kg daily, 14 days | reference: body weight | relative organ weight | 2.17% |
| CC(C)C[C@H](NC(=O)[C@H](CCCCN)NC(=O)OCC1c2ccccc2-c2ccccc21)C(=O)N[C@H](C(=O)N[C@@H](Cc1ccccc1)C(=O)N[C@@H](Cc1ccccc1)C(=O)N[C@@H](CCCCN)C(=O)NCC(=O)N[C@@H](Cc1ccccc1)C(=O)N[C@@H](C)C(=O)N[C@@H](Cc1c[nH]c2ccccc12)C(=O)N[C@@H](CC(N)=O)C(=O)N[C@H](C(=O)N[C@H]1CSSC[C@@H](C(=O)N[C@@H](Cc2c[nH]cn2)C(=O)N[C@@H](CCCNC(=N)N)C(=O)N[C@@H](CCCNC(=N)N)C(=O)N[C@@H](C)C(=O)N[C@@H](CC(N)=O)C(N)=O)NC(=O)[C@H](C(C)C)NC(=O)[C@H](CCCNC(=N)N)NC(=O)[C@H](C(C)C)NC(=O)CNC(=O)[C@H](CC(N)=O)NC(=O)[C@H](CCCNC(=N)N)NC(=O)[C@H](Cc2ccc(O)cc2)NC(=O)[C@H](C(C)C)NC1=O)C(C)C)C(C)C | circular dichroism, measured: Random-coil | PBS | 80 µM, pH 7.4, with: LPS 1 µM | – | secondary structure content | 29% |
| CC(C)Nc1ccnc(Nc2cccc(-c3cccnc3)c2)n1 | measured: albumin | mouse, blood | intraperitoneal, 5 mg/kg | – | blood chemistry | 3.9 g/dL |
| O=C(O)CCCOc1ccc(F)cc1-c1cc(-c2ccccc2C(F)(F)F)n(-c2ccccc2)n1 | – | Crl:CD(SD) rats, female, blood | iv, 25 µg/kg, 14 days | – | mean corpuscular haemoglobin | 19.7 pg |
| CC(C)C1CCC(N2CCC(N3C(=O)C(=O)c4ccccc43)CC2)CC1 (stereo not drawn) | – | conscious Sprague-Dawley rat | intravenous bolus, 100 nmol/kg | – | onset of sedation | ≤ 15 s |

Some of these lines once more:
| Compound | test | system | conditions | how to read | quantity | result |
| --- | --- | --- | --- | --- | --- | --- |
| O=C(Nc1ccccc1)C1CCN(C(=O)Oc2cccnc2)CC1 | – | healthy women | oral, 60 mg, 7 days | – | Vascular disorders adverse events | 14.3% |
| C=CCNc1c(O)cc2c(O)c1C[C@@H](C)C[C@H](OC)[C@H](O)[C@@H](C)/C=C(\C)[C@H](OC(N)=O)[C@@H](OC)/C=C\C=C(/C)C(=O)N2 | measured: first-degree AV block | patients with unresectable or metastatic GIST, STS or other tumours | intravenous, 90 mg/m^2 | – | treatment-emergent adverse events | 17% |
| C[C@@H](O)[C@@H]1NC(=O)[C@H](CCCCN)NC(=O)[C@@H](Cc2c[nH]c3ccccc23)NC(=O)[C@H](Cc2ccccc2)NC(=O)[C@@H](NC(=O)[C@H](N)Cc2ccccc2)CSSC[C@@H](C(=O)N[C@H](CO)[C@@H](C)O)NC1=O | population PK model | human, typical 75 kg | dose not given, weight exponent 1 fixed | – | peripheral volume of distribution | 16.1 L |
| C[C@H]1C[C@@H](N2C(=N)N[C@](C)(c3cccc(NC(=O)c4cccc(C#N)c4)c3Cl)CC2=O)CCO1 | – | rat | 1000 mg/kg, every other day | – | potassium change | -8% |
| CCN1[C@@H](C(=O)NC23CCC(C(=O)O)(CC2)CC3)[C@H](c2cccc(Cl)c2F)[C@]2(C(=O)Nc3cc(Cl)ccc32)C12CCCCC2 | – | patients with advanced solid tumours | oral, 150 mg | – | grade ≥3 Leukopenia incidence | 37.5% |
